Assay results gathered from unrelated publications.
Protocols differ between the studies behind these lines. ± marks the error that the study gave.
FGFR2: Fibroblast growth factor receptor 2 (FGFR2, Homo sapiens, UniProt P21802)
UniProt P21802, sequence (whole entry, looked up): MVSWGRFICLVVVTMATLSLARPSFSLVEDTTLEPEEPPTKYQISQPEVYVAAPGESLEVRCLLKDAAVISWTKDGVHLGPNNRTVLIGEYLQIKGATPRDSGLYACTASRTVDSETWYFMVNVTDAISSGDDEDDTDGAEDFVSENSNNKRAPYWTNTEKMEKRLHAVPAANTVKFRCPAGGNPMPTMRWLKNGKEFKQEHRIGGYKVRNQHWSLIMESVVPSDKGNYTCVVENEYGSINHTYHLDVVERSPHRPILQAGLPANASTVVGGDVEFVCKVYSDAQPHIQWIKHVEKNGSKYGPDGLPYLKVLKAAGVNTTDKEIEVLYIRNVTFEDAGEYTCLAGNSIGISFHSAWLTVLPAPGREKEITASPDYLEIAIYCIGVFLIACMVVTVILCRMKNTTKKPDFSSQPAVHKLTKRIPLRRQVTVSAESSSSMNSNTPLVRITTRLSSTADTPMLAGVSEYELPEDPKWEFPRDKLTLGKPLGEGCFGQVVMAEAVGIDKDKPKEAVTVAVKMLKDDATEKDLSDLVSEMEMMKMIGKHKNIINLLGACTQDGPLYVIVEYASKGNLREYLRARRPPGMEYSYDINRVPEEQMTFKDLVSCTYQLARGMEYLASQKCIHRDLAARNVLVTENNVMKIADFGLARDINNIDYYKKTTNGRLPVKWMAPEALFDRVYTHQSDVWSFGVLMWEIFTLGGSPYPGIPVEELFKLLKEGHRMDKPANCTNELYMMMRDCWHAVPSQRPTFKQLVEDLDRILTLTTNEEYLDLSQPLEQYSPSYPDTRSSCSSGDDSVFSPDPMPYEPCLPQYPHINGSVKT
PSMB7 in 20S proteasome: Proteasome subunit beta type-7, in 20S proteasome (PSMB7, Homo sapiens, UniProt Q99436)
UniProt Q99436, sequence (whole entry, looked up): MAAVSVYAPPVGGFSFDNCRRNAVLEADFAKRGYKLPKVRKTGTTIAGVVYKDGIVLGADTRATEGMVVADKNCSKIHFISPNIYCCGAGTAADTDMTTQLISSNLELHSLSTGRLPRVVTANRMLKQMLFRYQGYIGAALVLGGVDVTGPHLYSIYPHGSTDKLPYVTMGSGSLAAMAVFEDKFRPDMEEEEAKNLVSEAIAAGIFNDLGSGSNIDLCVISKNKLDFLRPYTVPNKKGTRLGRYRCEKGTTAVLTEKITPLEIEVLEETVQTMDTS
UniProt Q8DPL8, sequence (whole entry, looked up): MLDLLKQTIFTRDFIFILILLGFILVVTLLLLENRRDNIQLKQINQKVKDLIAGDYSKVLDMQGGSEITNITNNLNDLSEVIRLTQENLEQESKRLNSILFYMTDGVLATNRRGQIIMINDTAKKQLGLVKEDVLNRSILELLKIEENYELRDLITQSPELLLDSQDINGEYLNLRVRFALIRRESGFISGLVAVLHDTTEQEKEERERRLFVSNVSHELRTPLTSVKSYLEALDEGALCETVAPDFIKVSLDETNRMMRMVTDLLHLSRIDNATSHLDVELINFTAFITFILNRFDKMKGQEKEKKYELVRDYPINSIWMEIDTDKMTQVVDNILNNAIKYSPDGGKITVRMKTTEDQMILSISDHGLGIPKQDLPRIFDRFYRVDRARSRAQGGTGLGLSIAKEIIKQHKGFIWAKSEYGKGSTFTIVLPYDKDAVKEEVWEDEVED
UniProt P51812, sequence (whole entry, unmodified, looked up): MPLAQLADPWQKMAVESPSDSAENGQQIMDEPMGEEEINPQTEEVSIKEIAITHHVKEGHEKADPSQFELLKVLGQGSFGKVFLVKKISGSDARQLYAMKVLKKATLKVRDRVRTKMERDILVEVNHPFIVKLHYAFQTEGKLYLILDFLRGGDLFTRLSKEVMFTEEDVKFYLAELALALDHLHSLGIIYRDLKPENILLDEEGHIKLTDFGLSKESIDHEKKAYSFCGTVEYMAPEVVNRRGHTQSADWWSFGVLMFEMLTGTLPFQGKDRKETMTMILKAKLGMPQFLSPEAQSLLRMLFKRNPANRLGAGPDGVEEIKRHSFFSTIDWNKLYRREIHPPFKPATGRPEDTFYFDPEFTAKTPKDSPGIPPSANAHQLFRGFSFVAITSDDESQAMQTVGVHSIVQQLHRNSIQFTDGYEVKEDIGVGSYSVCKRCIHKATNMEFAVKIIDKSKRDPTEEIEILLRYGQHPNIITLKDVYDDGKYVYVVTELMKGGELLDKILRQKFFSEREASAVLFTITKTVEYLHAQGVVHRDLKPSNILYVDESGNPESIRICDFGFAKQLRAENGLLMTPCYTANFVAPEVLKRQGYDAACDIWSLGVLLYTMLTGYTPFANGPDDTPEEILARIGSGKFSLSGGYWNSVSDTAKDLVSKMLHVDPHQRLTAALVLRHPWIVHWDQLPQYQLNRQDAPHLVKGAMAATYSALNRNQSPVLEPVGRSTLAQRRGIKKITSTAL
UniProt P07947, sequence (whole entry, looked up): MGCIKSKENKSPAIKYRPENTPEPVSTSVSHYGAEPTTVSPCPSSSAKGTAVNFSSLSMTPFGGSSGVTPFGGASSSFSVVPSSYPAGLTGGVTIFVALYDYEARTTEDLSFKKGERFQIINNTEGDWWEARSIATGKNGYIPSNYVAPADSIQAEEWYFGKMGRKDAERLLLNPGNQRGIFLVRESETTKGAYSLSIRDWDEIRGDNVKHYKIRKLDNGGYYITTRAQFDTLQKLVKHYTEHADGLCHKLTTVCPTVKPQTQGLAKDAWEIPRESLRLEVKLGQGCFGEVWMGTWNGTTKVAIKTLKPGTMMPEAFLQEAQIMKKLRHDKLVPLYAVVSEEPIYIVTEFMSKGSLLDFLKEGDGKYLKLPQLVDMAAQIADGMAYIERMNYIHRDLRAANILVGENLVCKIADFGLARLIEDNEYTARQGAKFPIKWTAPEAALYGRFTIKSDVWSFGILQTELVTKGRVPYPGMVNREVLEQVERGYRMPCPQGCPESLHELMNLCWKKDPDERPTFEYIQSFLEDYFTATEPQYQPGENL
UniProt Q15849, sequence (whole entry, looked up): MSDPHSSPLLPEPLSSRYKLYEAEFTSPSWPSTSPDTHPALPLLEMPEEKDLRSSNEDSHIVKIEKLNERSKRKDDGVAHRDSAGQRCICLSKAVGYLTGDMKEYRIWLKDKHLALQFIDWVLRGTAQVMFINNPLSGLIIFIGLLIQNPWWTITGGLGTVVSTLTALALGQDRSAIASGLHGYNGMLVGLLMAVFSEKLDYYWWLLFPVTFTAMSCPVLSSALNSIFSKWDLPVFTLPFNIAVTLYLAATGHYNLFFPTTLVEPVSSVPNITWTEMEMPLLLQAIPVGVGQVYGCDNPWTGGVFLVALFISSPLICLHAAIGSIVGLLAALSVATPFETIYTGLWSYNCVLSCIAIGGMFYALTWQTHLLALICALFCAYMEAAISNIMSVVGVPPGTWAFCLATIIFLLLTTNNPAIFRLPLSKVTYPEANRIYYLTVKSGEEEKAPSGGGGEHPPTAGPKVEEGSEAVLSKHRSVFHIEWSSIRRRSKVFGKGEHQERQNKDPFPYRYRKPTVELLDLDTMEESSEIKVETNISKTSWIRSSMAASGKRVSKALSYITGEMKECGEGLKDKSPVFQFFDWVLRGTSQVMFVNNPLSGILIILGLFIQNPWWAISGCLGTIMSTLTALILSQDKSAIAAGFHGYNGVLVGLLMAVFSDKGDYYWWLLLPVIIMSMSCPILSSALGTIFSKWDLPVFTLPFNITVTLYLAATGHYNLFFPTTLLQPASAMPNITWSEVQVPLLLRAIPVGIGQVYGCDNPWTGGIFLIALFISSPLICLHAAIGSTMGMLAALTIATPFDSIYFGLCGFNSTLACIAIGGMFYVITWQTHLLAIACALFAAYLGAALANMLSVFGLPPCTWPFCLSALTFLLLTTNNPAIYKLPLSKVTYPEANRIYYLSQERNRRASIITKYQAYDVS
UniProt P53350, sequence (whole entry, looked up): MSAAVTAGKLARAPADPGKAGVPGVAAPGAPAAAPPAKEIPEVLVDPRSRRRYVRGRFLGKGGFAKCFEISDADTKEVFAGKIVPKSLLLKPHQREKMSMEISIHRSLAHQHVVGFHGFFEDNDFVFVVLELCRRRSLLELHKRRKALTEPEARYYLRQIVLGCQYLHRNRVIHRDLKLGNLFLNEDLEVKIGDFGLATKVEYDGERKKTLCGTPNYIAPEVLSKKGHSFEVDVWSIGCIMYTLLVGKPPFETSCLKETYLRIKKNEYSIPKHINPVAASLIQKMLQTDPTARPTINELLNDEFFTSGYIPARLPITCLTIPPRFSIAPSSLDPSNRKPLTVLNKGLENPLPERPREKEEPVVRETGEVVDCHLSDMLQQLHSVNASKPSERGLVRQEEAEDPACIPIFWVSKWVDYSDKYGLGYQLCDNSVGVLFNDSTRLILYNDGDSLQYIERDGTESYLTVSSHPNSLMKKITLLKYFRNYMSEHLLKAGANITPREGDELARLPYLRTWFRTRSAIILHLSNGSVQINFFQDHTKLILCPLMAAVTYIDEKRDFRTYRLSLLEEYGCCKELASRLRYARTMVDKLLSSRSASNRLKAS
UniProt P39051, sequence (whole entry, looked up): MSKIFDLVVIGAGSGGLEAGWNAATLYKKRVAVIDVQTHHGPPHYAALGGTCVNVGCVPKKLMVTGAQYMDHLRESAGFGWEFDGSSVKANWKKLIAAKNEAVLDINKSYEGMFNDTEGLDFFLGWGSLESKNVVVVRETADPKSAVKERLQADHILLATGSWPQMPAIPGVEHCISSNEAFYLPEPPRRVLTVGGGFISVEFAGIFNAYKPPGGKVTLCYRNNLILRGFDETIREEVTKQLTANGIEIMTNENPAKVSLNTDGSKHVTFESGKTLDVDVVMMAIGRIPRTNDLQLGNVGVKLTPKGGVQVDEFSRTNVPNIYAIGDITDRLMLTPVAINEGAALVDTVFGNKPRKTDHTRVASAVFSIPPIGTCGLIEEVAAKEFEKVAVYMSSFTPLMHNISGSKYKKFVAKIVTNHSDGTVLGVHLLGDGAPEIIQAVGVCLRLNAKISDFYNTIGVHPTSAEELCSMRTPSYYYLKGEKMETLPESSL

Cc1ccc(-c2cc(C(=O)NCCCN3CCOCC3)c3cc(Cl)ccc3n2)o1  IC50 (Trypanothione reductase (TPR, Trypanosoma brucei brucei, UniProt P39051); inhibitor, DTNB-coupled colourimetric; together with: substrate at Km): 11.6 µM
COc1ccc(NC(=O)N2CCCCN3[C@H](CN(C)C)[C@H](c4ccc(C#Cc5ccccc5)cc4)[C@@H]3C2)cc1  IC50 (Phenylalanine--tRNA ligase alpha subunit (Homo sapiens, UniProt Q9Y285); enzyme activity, inhibitor, absorbance): 18 µM
CCc1ccc2nc(-c3cc(-c4cnn(C5CCNCC5)c4)cnc3N)oc2c1O  IC50 (Tyrosine-protein kinase JAK2 (JAK2, Homo sapiens, UniProt O60674); enzyme activity, inhibitor, TR-FRET): 2.4 µM
N#C/C(=C\c1cccc(C(N)=O)c1)C(N)=O  IC50 (Ribosomal protein S6 kinase alpha-3, C-terminal kinase domain (RPS6KA3, Homo sapiens, UniProt P51812, T493M); kinase activity, inhibitor; together with: 0.1 mM ATP): 6.8 µM
Cc1n[nH]cc1-c1ccccc1Cl  IC50 (Adenylate cyclase type 10 (Homo sapiens, UniProt Q96PN6); enzyme activity, inhibitor): > 300 µM
COc1ccc(C)cc1S(=O)(=O)Nc1ccc(Cl)c(N2CCCS2(=O)=O)c1  IC50 (Urea transporter 2, UT-A2 isoform (SLC14A2, Homo sapiens, UniProt Q15849); urea transport, inhibitor; HEK293 transfected with wild-type SLC14A2): 2.78 ± 0.32 µM
COc1cc(C(=O)NC2CCC(N3CCN(C[C@H]4CC[C@](C)(C(F)(F)F)C4)CC3)CC2)c(F)cc1Nc1ncc2c(n1)N([C@H]1CCCC1(F)F)CC(F)(F)C(=O)N2C (stereo partly drawn)  IC50 (Serine/threonine-protein kinase PLK1 (PLK1, Homo sapiens, UniProt P53350); enzyme activity, inhibitor, ADP detection): 3.95e-05 µM
Nc1cc(Oc2ccc(-c3ccccc3)cc2)nn1S(=O)(=O)c1ccc(Oc2ccccc2)cc1  IC50 (Genome polyprotein, protease (West Nile virus, UniProt P06935); enzyme activity, inhibitor, fluorescence; with preincubation): 8.4 µM
COc1cc(Cc2c[nH]c3ncc(C(F)(F)F)cc23)cc(OC)c1  IC50 (FGFR2; enzyme activity, inhibitor): 0.009 µM
Cc1cccc(-c2cc(C#N)cc(Oc3c(C(F)(F)F)ccn(Cc4n[nH]c(=O)n4C)c3=O)c2)c1  IC50 (Gag-Pol polyprotein, reverse transcriptase (gag-pol, Human immunodeficiency virus 1, UniProt P03366); enzyme activity, inhibitor): 0.041 µM
CC(=O)NCCN(CC(=O)NCCN(CC(=O)NCCN(CC(=O)NCCC(N)=O)C(=O)C[C@@H](N)CCCCN)C(=O)C[C@@H](N)Cc1ccccc1)C(=O)C[C@@H](N)Cc1ccccc1  IC50 (HIV-1 TAR RNA; Tat/TAR complex displacement, FRET; room temperature, together with: 10 nM Tat/TAR complex): 42.4 ± 0.7 µM
Cc1nc(N(C)C)nc(C)c1O  IC50 (Seed linoleate 13S-lipoxygenase-1 (Glycine max, UniProt P08170); enzyme activity, inhibitor; pH 9.2): 593 µM
C=CC(=O)Nc1ccc(-c2c(-c3ccc(OC)cc3)c3c(N)ncnc3n2C)cc1  IC50 (FGFR2; Caliper mobility shift; 30 min preincubation, together with: 100 µM ATP): 0.01 µM
O=C(c1cc([N+](=O)[O-])ccc1Cl)N1CCN(c2ccc(F)cc2)CC1  IC50 (SEC14 (Saccharomyces cerevisiae, UniProt P24280); enzyme activity, inhibitor, radiometric): > 100 µM
C=C(NC(=O)C(=C)NC(=O)c1csc(C2=NC3c4csc(n4)C4NC(=O)c5csc(n5)C(C(C)(O)C(C)O)NC(=O)C5CSC(=N5)C(=CC)NC(=O)C(C(C)O)NC(=O)c5csc(n5)C3(CC2)NC(=O)C(Cc2ccc(O)cc2)NC(=O)C(=C)NC(=O)C(C)NC(=O)C(C(C)CC)NC2C=Cc3c(C(C)O)cc(nc3C2O)C(=O)OC4C)n1)C(N)=O (stereo not drawn)  IC50 (PSMB7 in 20S proteasome; trypsin-like activity, inhibitor; purified 20S proteasome; 15 min preincubation, 37 °C, together with: Boc-Leu-Arg-Arg-AMC substrate): 0.25 ± 0.02 µM
CNC(=O)C1CCN(c2ccccc2NC(=O)c2ccc(-c3cc(O)ccc3C)c(C)c2)CC1  IC50 (Ephrin type-B receptor 2 (EPHB2, Homo sapiens, UniProt P29323); target engagement in cells, BRET): 0.0154 µM
COc1cc(OC)cc(-c2nc3ccc(C(=O)NCCCN4CCN(c5cccc(C)c5C)CC4)cc3n2C2CCC2)c1  IC50 (Activin receptor type-1 (ACVR1, Homo sapiens, UniProt Q04771); target engagement in cells, BRET): 4.72 µM
Cc1[nH]nc(-c2nc3ccccc3[nH]2)c1C(=O)NC1CCNCC1  IC50 (3-phosphoinositide-dependent protein kinase 1 (PDPK1, Homo sapiens, UniProt O15530); enzyme activity, inhibitor): 0.09 µM
C=C(NC(=O)C(=C)NC(=O)c1csc(C2=NC3c4csc(n4)C4NC(=O)c5csc(n5)C(C(C)(O)C(C)O)NC(=O)C5CSC(=N5)C(=CC)NC(=O)C(C(C)O)NC(=O)c5csc(n5)C3(CC2)NC(=O)C(=C)NC(=O)C(=C)NC(=O)C(C)NC(=O)C(C(C)CC)NC2C=Cc3c(C(C)O)cc(nc3C2O)C(=O)OC4C)n1)C(N)=O (stereo not drawn)  IC50 (PSMB7 in 20S proteasome; trypsin-like activity, inhibitor; purified 20S proteasome; 15 min preincubation, 37 °C, together with: Boc-Leu-Arg-Arg-AMC substrate): 2.46 ± 0.43 µM
CNC(=O)C1CCN(c2cc(C)ccc2NC(=O)c2ccc(-c3cc(O)ccc3C)c(C)c2)CC1  IC50 (Tyrosine-protein kinase Yes (YES1, Homo sapiens, UniProt P07947); target engagement in cells, BRET): 9.4 µM
c1ccc(CCNc2ncnc3[nH]cnc23)cc1  IC50 (Sensor histidine protein kinase/phosphatase WalK (walK, Streptococcus pneumoniae, UniProt Q8DPL8); enzyme activity, ATP-competitive inhibitor): 1310 µM
